Assay results from different studies.
Compare with care: the assays were run in different laboratories. ± marks the error that the study gave.

c1ccc2c(c1)Cc1ccccc1-2
point of departure (human iPSC-derived cardiomyocytes; mitochondrial membrane potential, refers to: JC-10 granules; 30 min): < 30 µM

C=C(C)[C@]12C[C@@H](COC(C)=O)[C@@]34O[C@]5(O[C@@H]1[C@@H]3[C@@H]1O[C@]1(CO)[C@@H](O)[C@@]1(O)[C@H]4[C@H]([C@H](C)[C@@H]1OC(=O)c1ccccc1)[C@H](C)CCCCCC[C@H]5O)O2
IC50 (MT4; cell growth or viability, ATP luminescence): 4.3 µM

N[C@@]1(C(=O)O)CC[C@@H](C(=O)O)C1
EC50 and Emax (rat cerebellar granule cells; PI hydrolysis; 24 h, culture-conditioned medium; baseline: freshly prepared): no effect

C[C@H](Cn1cnc2c(N)ncnc21)OCP(=O)(O)O
intracellular accumulation (hCMEC/D3; 5 µM, 1 h, 37 °C): 5.91 ± 1.74 pmol/mg protein

CC(=O)O[C@@]12CO[C@@H]1C[C@H](O)[C@@]1(C)C(=O)[C@H](OC(=O)C3CC3)C3=C(C)[C@@H](OC(=O)[C@H](O)[C@H](C=C(C)C)NC(=O)OC(C)(C)C)C[C@@](O)([C@@H](OC(=O)c4ccccc4)[C@H]21)C3(C)C
IC50 (WI-38; MTT; 72 h, no GSH-OEt added): 0.0107 µM

C=C(C[C@H](N)C(=O)O)C(=O)Nc1ccccc1
concentration increasing cytotoxicity (MDA-MB-231; 72 h; baseline: vehicle): 100 µM

CN(CCCC(=O)O)N=O
lowest effective concentration (HepaRG 3D spheroids; DNA damage, refers to: % tail DNA; 24 h; baseline: vehicle): 625 µM

O=C(Nc1ccccc1F)c1cc2c(=O)n3ccccc3nc2n1Cc1ccccc1
IC50 (Vero E6; MTT): 48.8 ± 3.72 µM

H-HGLASTLTRWAHYNALIRAFGGG-NH2 (C-amide)
internalized peptide (U-87 MG; fluorimetry; 1 µM, 2 h, serum-free): ~30%

CC[C@H](C)[C@H](NC(=O)[C@H](C)NC(=O)[C@H](CCCNC(=N)N)NC(=O)[C@H](CCCNC(=N)N)NC(=O)[C@H](CC(N)=O)NC(=O)[C@H](CCCNC(=N)N)NC(=O)[C@H](CCCNC(=N)N)NC(=O)[C@H](C)NC(=O)[C@@H](NC(=O)[C@@H](NC(=O)[C@@H](NC(=O)[C@H](CS)NC(=O)[C@H](CCCCN)NC(=O)[C@@H](N)CCCNC(=N)N)C(C)C)[C@@H](C)CC)C(C)C)C(=O)N[C@H](C(=O)N[C@@H](CC(C)C)C(=O)N[C@@H](CS)C(=O)N[C@@H](CCCNC(=N)N)C(=O)O)[C@@H](C)CC
hemolysis (human red blood cells; 128 µg/mL, 3 h, 37 °C; baseline: Triton X-100): -0.4%

N=C(N)NCCC[C@H](NC(=O)C(=Cc1ccccc1)NC(=O)[C@@H](N)CCCNC(=N)N)C(=O)NCC(=O)N[C@@H](CC(=O)O)C(N)=O
IFN-γ secretion (T cells cocultured with dendritic cells; ELISA; 77 to 386 µM): < 4 pg/mL

CCOP(=S)(OCC)Oc1ccc([N+](=O)[O-])cc1
point of departure (human iPSC-derived cardiomyocytes; mitochondrial membrane potential, refers to: JC-10 granules; 30 min): < 30 µM

CN(N=O)c1ccccc1
ATP level (HepaRG 3D spheroids; cell viability; concentration not given, 24 h; baseline: vehicle): 89.9%

CC(=O)c1cc(-c2cc(C(=O)NC3CC3)ccc2C)c2ncccn12
nonspecific binding (MDA-MB-231; trypsin-EDTA digestion vs solvent extraction; concentration not given, 6 h): 65%

O=C(COc1ccc(-c2ccccc2)cc1)NC(=O)N[C@@H]1O[C@H](CO)[C@@H](O)[C@H](O)[C@H]1O
minimal cytotoxic concentration (HEL fibroblasts; cell morphology; 3 days): > 100 µM

Cc1cn(Cc2ccc(O)c(C=O)c2)c(=O)[nH]c1=O
minimum cytotoxic concentration (HEL fibroblasts; cell morphology alteration): > 100 µM

O=C(CN(Cc1ccccc1)S(=O)(=O)NCc1cccc(Oc2ccccc2)c1)NCCN1CCOCC1
TD50 (HG23 norovirus replicon cells; 48 h): 45 ± 13 µM

CC(C)N(N=O)C(C)C
lowest effective concentration (HepaRG 3D spheroids; DNA damage, refers to: % tail DNA; 24 h; baseline: vehicle): 5000 µM

Nc1ccn([C@@H]2O[C@H](CO)[C@@H](O)C2(F)F)c(=O)n1
minimum cytotoxic concentration (HEL embryonic lung fibroblasts; cell morphology, microscopy): 20 µM

CC(C)(C)OC(=O)N1CCC2(CC1)N=C(N)N=C(N)N2Cc1cccc(Cl)c1
minimum cytotoxic concentration (MDCK; microscopy, altered cell morphology): > 100 µM

For quick reference, copied from above:
CCOP(=S)(OCC)Oc1ccc([N+](=O)[O-])cc1
point of departure (human iPSC-derived cardiomyocytes; mitochondrial membrane potential, refers to: JC-10 granules; 30 min): < 30 µM

Nc1ccn([C@@H]2O[C@H](CO)[C@@H](O)C2(F)F)c(=O)n1
minimum cytotoxic concentration (HEL embryonic lung fibroblasts; cell morphology, microscopy): 20 µM
